Assay results of several laboratories.
Lines come from different studies, so protocols differ. “And” joins repeats or separate records; there may be more than shown.

Structure (SMILES)	target or system	assay	test system	setting	how to read	quantity	result
COC1CN([C@H]2CC[C@H]([C@@]3(C)Oc4c(Cl)cc(C(=O)NCc5c(SC)cc(C)[nH]c5=O)c(C)c4O3)CC2)C1		RNA-seq, item: ACP3 mouse homolog	mouse, HT-1376 xenograft, whole blood	dose not given	baseline: vehicle	log2 fold change	0.539
Cc1ncsc1-c1ccc(C(C)NC(=O)C2CC(O)CN2C(=O)C(NC(=O)CCCCCCCCCCN2CCCC(Nc3ncc(Cl)c(Nc4ccccc4S(=O)(=O)C(C)C)n3)C2)C(C)(C)C)cc1 (centres unmarked)	22Rv1	RNA-seq, item: ZNF526 mRNA		concentration not given	baseline: DMSO	log2 fold change	-1.98
COc1ccccc1-c1ccncc1C(=O)Nc1nnc(OCc2ccc(Cl)cc2)s1	DLD-1 parental			0.5 µM, single replicate		colony count	77 and 79 and 81 and 67 and 82 and 70
CCN(CC)CC(=O)Nc1cccc(-n2cc(-c3ccc4ccc(-c5cn(-c6cccc(NC(=O)CN(CC)CC)c6)nn5)cc4c3)nn2)c1	RCC4	PCR angiogenesis array, item: CXCL9		5 x IC50, 2 h, normoxia	baseline: untreated	fold regulation	1.17
Nc1ncc(-c2cc(-c3cnn(CC(F)(F)F)c3)ncc2F)nc1C(=O)NC1CNCC(F)C1 (centres unmarked)	PYK2	KINOMEscan		1 µM	baseline: DMSO control	remaining binding	88%
C=CC(=O)N1[C@@H](c2ccc3c(c2)OCO3)c2[nH]c3ccccc3c2C[C@H]1C(=O)N1CCN(C)CC1	CCNE1 WT-3xFLAG:CDK2 complex	co-IP TMT proteomics, item: RBL2	HEK-293T	20 µM, 6 h	baseline: DMSO	log2 fold change	0.07
C=CC(=O)Nc1cccc(Cn2ncc3cnc(Nc4cnn(CCOC)c4)nc32)c1	FER human	binding, KINOMEscan		100 nM	lower = stronger binding	percent of control	100%
CNS(=O)(=O)Nc1nccc(Cc2c(C)c3ccc(Oc4ncccc4F)cc3oc2=O)c1F	KARPAS-422	cell viability		7 days		IC50	> 1000 nM

For quick reference, copied from above:
Structure (SMILES)	target or system	assay	test system	setting	how to read	quantity	result
Cc1ncsc1-c1ccc(C(C)NC(=O)C2CC(O)CN2C(=O)C(NC(=O)CCCCCCCCCCN2CCCC(Nc3ncc(Cl)c(Nc4ccccc4S(=O)(=O)C(C)C)n3)C2)C(C)(C)C)cc1 (centres unmarked)	22Rv1	RNA-seq, item: ZNF526 mRNA		concentration not given	baseline: DMSO	log2 fold change	-1.98
